Measured values of several laboratories.
Numbered parts are unrelated; each lists some results of a single study. Changes are numbered by the printed parent chain.

Set 1 — technique: DHFR PCA, deep sequencing; matrix: yeast; with: (+)-ABA 17 µM; relative to: wild-type fitted maximum; direction: higher = stronger binding
Target: ABI1, truncated, D143A, DHFR fusion (Arabidopsis thaliana)
Setting: methotrexate growth selection, single substitutions
Parent: PYL1, truncated, DHFR fusion (Arabidopsis thaliana); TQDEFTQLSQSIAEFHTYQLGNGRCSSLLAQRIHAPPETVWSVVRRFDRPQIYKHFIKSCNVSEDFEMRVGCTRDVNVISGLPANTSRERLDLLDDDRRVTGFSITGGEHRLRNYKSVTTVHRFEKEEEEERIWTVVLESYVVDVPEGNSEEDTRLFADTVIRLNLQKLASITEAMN
Substitution | relative binding score
H16G | -3.18%
V40N | -17.7%
S59F | 43.2%
E147F | 78.3%
V137E | 3.04%
A30H | 84.7%
S26T | 84.8%
L94I | 82.3%
Y18C | 52.6%
V136H | 24.3%
Q7R | 80.6%

Set 2 — technique: RNA Bind-n-Seq; molecule type: RNA; matrix: in vitro; concentration: 200 nM; setting: whole 134-nt RNA, ends assumed; with: 150 mM LiCl; relative to: input library; direction: higher = stronger binding; each molecule: 7-deaza-guanosine replaces G
Target: Fragile X messenger ribonucleoprotein 1, C-terminal low-complexity region (Fmr1, Mus musculus, UniProt P35922)
Sequence | log2 enrichment
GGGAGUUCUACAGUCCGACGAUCCUCAAGUCCUGUGCUACACAUCGUAUGUACCGAAUCGGUUGGGUUGGGUUGGGAAAGUAUUAUGUUACGCCGUUCGGAUCUGCACUUCCAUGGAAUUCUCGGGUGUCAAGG | 0.132
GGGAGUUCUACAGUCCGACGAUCUCAAGUCCUGUGCUACACAUCGUAUGUACCGAAUCGGGGCGGGGCGGGGCGGGGAAAGUAUUAUGUUACGCCGUUCGGAUCUGCACUUCCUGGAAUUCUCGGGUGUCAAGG | -0.502
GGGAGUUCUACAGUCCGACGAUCAGUCCUGUGCUACACAUCGUAUGUACCGAAUCGGGUUUGGGUUUUUGGGUUUUUGGGAAAGUAUUAUGUUACGCCGUUCGGAUCUGCACUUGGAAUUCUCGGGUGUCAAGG | -1.66
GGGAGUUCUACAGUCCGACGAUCCCUGUGCUACACAUCGUAUGUACCGAAUCGGGGCCCCCGGGGCCCCCGGGGCCCCCGGGGAAAGUAUUAUGUUACGCCGUUCGGAUCUGCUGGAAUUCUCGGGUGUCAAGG | -0.0435
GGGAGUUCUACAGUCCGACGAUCCAAGUCCUGUGCUACACAUCGUAUGUACCGAAUCGGUUUGGAAAAAAAGGUUUGGAAAGUAUUAUGUUACGCCGUUCGGAUCUGCACUUCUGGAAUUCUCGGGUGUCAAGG | -3.04
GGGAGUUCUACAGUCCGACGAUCUGUGCGGGAGACAGGCGCCAACGGCACCUCUUUCAGUGUCCGCAAGACAGCCUACUGCGACAUCCACACGCCUCCAGGUUCAGCACGCCGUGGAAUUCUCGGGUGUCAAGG | 0.331
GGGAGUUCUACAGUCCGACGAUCACCAUGCAGGUGGGCAUCUUUGGGAAGUGGGGCAAGGGGGGGAUAGGGAGGGGGGUAACACUUUGGGAACAGGUGGCCCCAGGUCGUUUCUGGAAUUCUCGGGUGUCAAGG | 1.55
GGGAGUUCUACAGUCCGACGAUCCACAGACAACACGCACCCACACAGACACAGAGGGAAGGGGUUGGGAUGGGGACAGGGUGCACAGCAGGGCGGGGUAGGACCCCUGCCCCUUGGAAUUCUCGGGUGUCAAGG | -0.606
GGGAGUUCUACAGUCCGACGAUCGGAGUGCCGUGAGCAGGCCGCGGGAACGUCGCCGUCACCUUGUCUCGGGGCCUCGGCGCUGCUUCCCGCCAAAACACGUUUACCGCGCGCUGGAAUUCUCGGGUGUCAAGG | -2.08
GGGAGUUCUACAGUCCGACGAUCGUGCUGGCUGGCCACGGUCACCUGUAUUCCCGCAUCCCAGGCCUGCUCAGCCCCCAUCCCCUGCUGCAGCUGAGCUACACGGCCACCGACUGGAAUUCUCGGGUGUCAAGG | 2.13
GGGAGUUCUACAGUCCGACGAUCCUCAAGUCCUGUGCUACACAUCGUAUGUACCGAAUCGGGGCGGGGCGGGCGGGAAAGUAUUAUGUUACGCCGUUCGGAUCUGCACUUCCAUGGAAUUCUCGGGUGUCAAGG | -0.303

Set 3 — technique: universal PBM; molecule type: double-stranded DNA, one strand shown; matrix: in vitro; concentration: 600 nM; direction: higher = stronger binding
Target: Sal-like protein 4, full length isoform A (SALL4, Homo sapiens, UniProt Q9UJQ4, residues 1-1053)
Sequence of UniProt Q9UJQ4 (whole entry, looked up): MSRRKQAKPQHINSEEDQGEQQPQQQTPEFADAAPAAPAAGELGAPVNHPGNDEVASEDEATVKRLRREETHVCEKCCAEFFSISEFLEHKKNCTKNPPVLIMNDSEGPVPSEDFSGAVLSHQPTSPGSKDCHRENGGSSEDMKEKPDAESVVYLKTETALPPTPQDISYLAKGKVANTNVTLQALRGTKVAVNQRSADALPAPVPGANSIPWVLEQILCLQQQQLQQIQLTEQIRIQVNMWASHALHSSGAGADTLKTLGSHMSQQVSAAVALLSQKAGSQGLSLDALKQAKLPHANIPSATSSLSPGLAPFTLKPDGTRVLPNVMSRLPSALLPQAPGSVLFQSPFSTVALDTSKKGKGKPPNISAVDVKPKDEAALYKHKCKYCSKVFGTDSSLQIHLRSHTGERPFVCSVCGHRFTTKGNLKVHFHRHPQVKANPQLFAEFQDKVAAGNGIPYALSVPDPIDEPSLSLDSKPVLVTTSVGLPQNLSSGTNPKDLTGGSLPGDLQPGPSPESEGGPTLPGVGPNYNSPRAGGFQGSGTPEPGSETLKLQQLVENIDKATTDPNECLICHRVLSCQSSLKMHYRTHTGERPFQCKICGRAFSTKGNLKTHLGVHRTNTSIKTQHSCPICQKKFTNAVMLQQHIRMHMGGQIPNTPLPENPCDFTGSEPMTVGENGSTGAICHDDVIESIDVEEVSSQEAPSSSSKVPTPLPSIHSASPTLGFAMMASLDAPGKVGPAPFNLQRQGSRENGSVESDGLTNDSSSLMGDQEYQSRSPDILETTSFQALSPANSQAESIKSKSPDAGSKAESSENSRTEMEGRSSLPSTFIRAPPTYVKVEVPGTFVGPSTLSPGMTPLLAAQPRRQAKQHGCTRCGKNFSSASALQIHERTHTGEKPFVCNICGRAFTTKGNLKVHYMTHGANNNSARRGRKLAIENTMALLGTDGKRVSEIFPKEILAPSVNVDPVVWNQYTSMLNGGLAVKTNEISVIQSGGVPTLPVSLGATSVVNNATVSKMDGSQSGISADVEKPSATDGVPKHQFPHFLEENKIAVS
Setting: 8-mer, flanks averaged, mean of replicates
Sequence | E-score
CTCTAATC | -0.0163
CCCGCTCG | -0.334
CTATAAGA | 0.158
ACAAGCCA | -0.0377
AGGCCTCG | -0.393
CACGCCTG | -0.222
AATTTGAT | 0.215
AGGTAGGC | -0.166
CTTGAGAA | 0.166
ATCTTCAG | 0.101
ATAAAATG | 0.369
ACACCCTC | -0.106
GCTGAATA | 0.23
ATCGAGTC | 0.00834
CTAGATAG | 0.027
CACTAGCA | 0.0974
CTGTCACC | -0.128
ACCAAGCA | -0.141
GGGCTCAA | -0.181
AAACAGGA | 0.0962
AGTCCAAC | -0.256
CAGTCCAG | -0.354
GAGGCCAC | -0.273
CCCTAAAA | 0.0617

Set 4 — target: CCND1, cyclin fold, Cln2 fusion (human); technique: yeast growth competition, sequencing; matrix: yeast; setting: weak parent motif; relative to: not given; direction: higher = stronger binding
Parent: RB1 docking peptide (human); PKPLKKLRFDIEG
Substitution | normalised enrichment score
P3D | 0.554
F9G | 0.416
K2G | -0.0977
G13Q | 0.203
K2N | -0.0102
L7R | -0.00601
L4H | -0.379
F9K | -0.0499
D10C | -0.287
K2S | -0.0913
K6R | 0.0614
L4R | -0.531
D10P | 0.126
D10F | 0.637
K2Q | -0.438
K2T | -0.911
D10A | 0.131
P1I | -0.42

Set 5 — technique: RNA Bind-n-Seq; molecule type: RNA; matrix: in vitro; concentration: not given; relative to: input RNA pool; direction: higher = stronger binding
Target: RING finger protein unkempt homolog, zinc fingers 1-6, GST-SBP tag (UNK, Homo sapiens, UniProt Q9C0B0, residues 30-357)
Setting: RNA with constant flanks, human and mouse sites, ends assumed
Target sequence (chain): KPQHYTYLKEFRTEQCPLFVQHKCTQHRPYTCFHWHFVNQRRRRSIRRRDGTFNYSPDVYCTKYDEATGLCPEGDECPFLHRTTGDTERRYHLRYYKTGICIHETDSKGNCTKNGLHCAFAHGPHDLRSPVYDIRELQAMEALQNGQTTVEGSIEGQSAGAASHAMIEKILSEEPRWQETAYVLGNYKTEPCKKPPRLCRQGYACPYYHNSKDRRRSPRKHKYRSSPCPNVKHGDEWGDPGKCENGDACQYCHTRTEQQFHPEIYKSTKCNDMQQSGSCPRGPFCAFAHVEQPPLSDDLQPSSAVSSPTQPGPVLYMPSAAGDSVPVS
Sequence | bound/input enrichment [ratio]
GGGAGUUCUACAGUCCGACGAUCCUUUCUUCCUCACCAGAGUAUGGGGCAGAGAUAAUAAUGGACAUCAAUACAGCUGGUAUUGAUAUGCCCAUGUUUUCUGCUUUGUUACACUACCUUUAUACAGGAGAGUUUGGAAUGGAGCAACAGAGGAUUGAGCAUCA | 0.118
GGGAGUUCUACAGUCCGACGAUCAUGAGCAUAAAUGAAGCUAAGGAAUAUGAAGUGUACGACAGUUCGCCUCAUCUUGAGUGCCUAGCAGAAUUUCAGGAGAAAGUCAGGAAGACCAACAAUUUUUCAGCUUUUCUUGCCAAUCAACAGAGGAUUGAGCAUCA | 0.0808
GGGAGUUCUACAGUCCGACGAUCAUAGAAUUCUGUACCCCAGUAAUCAACUAGUUUUCUAUUAAUGUGCUUGUCUGUUCUAAGAGUAGGAUUAACACAGGGGAAGUCUUGAGAAGGAGUUUUGAUUCUUUUAUAUGUUUUUAACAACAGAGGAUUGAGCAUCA | 6.22
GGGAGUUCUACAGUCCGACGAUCAAAUUUGACUCAAAUGUGAGUGGUCAGUCCUCUUUCGGGACAUCUCCAGCAGCAGACAACAUAGAAAAGGAGGCGCUUCCUCGUUAUGAGCCAAUUCCAUUUAGUGCUUCUAUGAACGAGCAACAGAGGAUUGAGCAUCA | 0.737
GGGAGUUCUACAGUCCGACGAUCCUGUGAAAGUAUGGGAAGGUUCCCAUCCCCAUCCUUUAAGGUUCCCAAACCUGGAGUGCAUAGGUACUAAACCAAGCAGUGCAACUUGUAAUUAAGAAGCUGCAGUGUUUACAUGUUUCUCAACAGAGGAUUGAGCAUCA | 0.205
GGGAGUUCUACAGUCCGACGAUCUUAAAGUUGUUGGCAGAGAUGAGUUCAUUUUGUGGUGACAUGGAAAAACUAGAAACAAAUUUAAGAAAACUGUUUGAUAAGUUAUUGGAGUAUAUGCCUCUCCCUCCAGAAGAAGCAGAACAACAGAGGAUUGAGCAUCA | 1.89
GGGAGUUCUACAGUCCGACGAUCGACAUUUUGGGUGUUAAGAAGGAAAUGAUCCGGCUAGAUGAAGUUCCCAAUCUGAGUUCCUUAGUAUCCAAUUUCGAUCAGCAGCAGCUUGCUAACUUCUGCAGGAUCCUGGCUGUCACCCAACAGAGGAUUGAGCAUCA | 0.466
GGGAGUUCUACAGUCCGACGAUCAAGCCAAAAAUCCAGAUUUGUAUAUGAAAUCUUACCAUUUUAAAAGAUUGGCAGCUAAUUAUUUUUUUAAAAAGCUGUGCAGUGUGAUGUGUCCCAAACGGACUGGCUCAUGGGUGGCCACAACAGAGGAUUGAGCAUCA | 0.412
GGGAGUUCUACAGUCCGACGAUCAAUGAAUCACUGAACAACCUCUUUAUUACUGAAGAAGAUUACCAGGCUCUGCGAACAUCAAUAGAUGCUUAUGACAACUUUGACAACAUCUCACUUGCUCAGCGUUUGGAAAAACACGAACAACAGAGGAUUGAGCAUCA | 0.107
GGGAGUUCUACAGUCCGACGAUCCUAGACUUCAAUAAGAAAAUCCUUCACACAGCCUGGCACCCCAAGGAAAAUAUCAUUGCCGUAGCUACUACAAACAAUCUGUAUAUAUUUCAAGACAAAGUGAAUUAGGGUUGGCAUUCCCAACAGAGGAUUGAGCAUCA | 0.776
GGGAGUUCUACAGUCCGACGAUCAUUCAGAAUCACUUUGUGGAUGAGUAUGACCCUACGAUAGAGGACUCCUACAGGAAACAAGUAGUAAUUGAUGGAGAAACCUGUCUCUUGGAUAUUCUCGACACAGCAGGUCAAGAGGAGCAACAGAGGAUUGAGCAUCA | 0.563

For quick reference, copied from above (set 3):
Sequence | E-score
ATAAAATG | 0.369
ACCAAGCA | -0.141
ACACCCTC | -0.106
CCCTAAAA | 0.0617
AATTTGAT | 0.215
GAGGCCAC | -0.273
CTATAAGA | 0.158
AGGTAGGC | -0.166
AAACAGGA | 0.0962
AGTCCAAC | -0.256
GCTGAATA | 0.23
AGGCCTCG | -0.393
